Results gathered from unrelated publications.
Each line is one published result; not all experiments were run side by side. Values joined by “and” are separate records of one study, mostly repeats; a detail may differ. ± marks the error that the study gave. ≈ marks a conversion by molar mass, not a printed value.

The plasma concentration of `CC(C)(O/N=C(\C(=O)N[C@H]1CN2CC(C(=O)NCCN3C(=O)c4cc(O)c(O)cc4C3=O)=C(C(=O)O)N2C1=O)c1nc(N)sc1Cl)C(=O)O` is reported as 678 ng/mL (CD-1 mouse, plasma; subcutaneous, 50 mg/kg, 24 h).
`[2H]C([2H])([2H])Oc1cc2c(cc1OC([2H])([2H])[2H])C1CC(=O)C(CC(C)C)CN1CC2` (stereo not drawn): “geometric mean ratio AUCinf” 105% (measured: β-HTBZ; human, fasted; oral, 15 mg single dose; reference: tetrabenazine 25 mg fasted).
With `CCCOc1ccc([C@H]2CNC(=O)N2c2ccc3[nH]cnc3c2)cc1` the effective half-life was 2.43 h (human volunteers fasted, plasma; oral solution, 400 mg single dose, day 1, geometric mean).
`COc1cc2c(cc1OC)CN(CCc1ccc(NC(=O)c3cc(OC)c(OC)cc3NC(=O)c3cnc4ccccc4c3)cc1)CC2` gave a plasma concentration of 911 ng/mL (Wistar Unilever rat, plasma; intravenous, 7.5 mg/kg, 3 h).
With `CC(C)[C@](O)(c1ccc2cc(OC(F)F)c(OC(F)F)cc2c1)c1c[nH]nn1` the AUC(tau) was 63500 ng·h/mL (human, male, plasma; oral, 750 mg, cycle 2 day 2, steady state).
`CC(C)C[C@H]1C(=O)N2CCC[C@H]2[C@]2(O)O[C@](NC(=O)[C@@H]3C=C4c5cccc6[nH]c(Br)c(c56)C[C@H]4N(C)C3)(C(C)C)C(=O)N12` has a clearance of 3.05 ± 0.433 mL/min/kg (male Sprague-Dawley rats, plasma; intravenous, 0.1 mg/kg, together with: DAL 1.7 mg/kg plus HAL 0.7 mg/kg).
With `CCCCCCCCCCCCCCCCCCOP(=O)([O-])OC1CC[N+](C)(C)CC1` the Tmax was ~19 h (rhesus monkey, male, plasma; oral, 7 mg/kg, single dose, mean of 3).
`O=C1N=C(N2CCOCC2)CN1c1ccc(Cl)cc1` gave a Tmax of 2.06 h (beagle dog, both sexes, plasma; oral, 30 mg/kg, tablets, fasted, day 5).
For `CCOc1ccc(Cc2cc([C@]34OC[C@](CO)(O3)[C@@H](O)[C@H](O)[C@H]4O)ccc2Cl)cc1`, the fu was 0.0411 (equilibrium dialysis; human, type 2 diabetes, severe renal impairment, plasma; oral, 15 mg, 6 h).
With `CC(=O)Nc1noc(C)n1` the concentration was 421 to 1180 ng/g (HPLC-MS; C57BL/6 mouse, male, lungs; oral, 60 mg/kg, 45 min).
For `CC1=C2C[C@H]3[C@@H](CC[C@@H]4C[C@H](NS(C)(=O)=O)CC[C@@]43C)[C@@H]2CC[C@@]2(C1)O[C@@H]1C[C@H](C)CN[C@H]1[C@H]2C`, the Tmax was 3.13 h (patients, plasma; oral, 130 mg daily, day 22, cycle 1).
`CS/C(S)=N/CCCC[S+](C)[O-]` (racemic) — result for “mRNA fold change”: 2.05 (RT-PCR, measured: Cyp2b15; rat, liver; oral gavage, 200 mg/kg, dosed for four days; reference: vehicle).
With `Cc1cc(Nc2ncc(Cl)c(Nc3ccccc3S(=O)(=O)C(C)C)n2)c(OC(C)C)cc1C1CCNCC1` the Css,max was 1830 nM and 2230 nM (measured: total drug; human, plasma; oral, 750 mg/day).
Under “steady-state placental transfer”, `Cc1cc(=O)n(-c2ccccc2)n1C` is recorded as ~29% (perfused human term placental cotyledon; 531 µM, 1 to 120 min, 36.5 °C, maternal to fetal, together with: barusiban 1.2 µM).
The viscosity of `CC(=O)N[C@H](C(=O)N[C@@H](CCCNC(=N)N)C(=O)N[C@H](C(=O)N[C@@H](CC(=O)O)C(=O)N[C@H](C(=O)N[C@@H](CCCNC(=N)N)C(=O)N[C@H](C(=O)N[C@@H](CC(=O)O)C(=O)N[C@H](C(N)=O)C(C)C)C(C)C)C(C)C)C(C)C)C(C)C` is reported as 626 ± 40.2 Pa·s (rotational rheometry; 1% w/v aqueous solution; shear rate range 1-1000 s^-1).
With `C[C@](N)(Cc1ccc(O)c(O)c1)C(=O)O` the solubility was 397 µg/mL (≈ 1880 µM) (supercritical carbon dioxide; 5 h, 333 K, 30 MPa, density 830.5 kg/m3).
`Cc1ncnc2c1c(Cl)cn2[C@@H]1O[C@H](CO)[C@@H](O)[C@H]1O` gave a remaining compound of 87% (mouse liver microsomes; 60 min, together with: NADPH).
For `CS(=O)(=O)n1cc2c(n1)CN([C@H]1CO[C@H](c3cc(F)ccc3F)[C@@H](N)C1)C2`, “concentration at 168 h” read 18.8 nM (healthy male human, plasma; oral, 25 mg once weekly, day 1, fasted, geometric mean).
The Tmax median of `Cn1c(-c2ccc(C(N)=O)cc2F)nnc1C(C)(C)Oc1c(F)cc(Cl)cc1F` is reported as 2 h (healthy young Japanese subjects, plasma; oral, 10 mg once daily, day 18, 14 days dosing).
The CL of `CNCc1ccc(-c2cc(-c3nc(-c4ccc(S(=O)(=O)C(C)C)cc4)cnc3N)on2)cc1` is reported as 47.6 mL/min/kg (mouse BALB/c female, plasma; intravenous, 6.0 mg/kg, from AUC(0-360)).
With `O=C(c1nc2n(n1)[C@H](c1ccccc1)C[C@@H]2F)C1CC1` the concentration was 535 ng/mL (human, plasma; oral, 150 mg, 24 h, single dose, fasted, healthy volunteers).
`C[C@]12CC[C@@H]3c4ccc(O)cc4CC[C@H]3[C@@H]1C[C@@H](O)[C@@H]2O`: “median serum concentration” 0.0066 ng/mL (GC-MS; breast cancer women on NSAI, serum; vaginal, 0.03 mg daily, 8 h, day 28).
For `O=C(O)COC[C@H]1CC[C@H](COC(=O)N(c2ccccc2)c2ccc(Cl)cc2)CC1`, the concentration was 0.928 ng/mL (human, plasma; oral, 20 µg, 12 h, multiple doses, twice daily, steady state).
For `CN1CC[C@@H](NC(=O)Nc2ccc(C#N)cc2)C[C@@H]1c1nc2ccccc2[nH]1`, the AUC(0-inf), unbound was 845 ng·h/mL (normal hepatic function, plasma; oral, 100 mg single dose, fasted, geometric mean).
`Oc1ccc(/C=C/c2ccc3cc4ccccc4cc3c2)cc1O` — result for “linear absorbance range”: ≤ 5 µM (water; aggregation above range).
The t1/2 of `CC[C@H](C)[C@H](NC(=O)[C@H](CCC(=O)O)NC(=O)[C@H](CO)NC(=O)[C@@H](NC(=O)[C@@H](N)CO)C(C)C)C(=O)N[C@@H](CCC(N)=O)C(=O)N[C@@H](CC(C)C)C(=O)N[C@@H](CCSC)C(=O)N[C@@H](Cc1cnc[nH]1)C(=O)N[C@@H](CC(N)=O)C(=O)N[C@@H](CC(C)C)C(=O)NCC(=O)N[C@@H](CCCCN)C(=O)N[C@@H](Cc1cnc[nH]1)C(=O)N[C@@H](CC(C)C)C(=O)N[C@@H](CC(N)=O)C(=O)N[C@@H](CO)C(=O)N[C@@H](CCSC)C(=O)N[C@@H](CCC(=O)O)C(=O)N[C@@H](CCCN=C(N)N)C(=O)N[C@H](C(=O)N[C@@H](CCC(=O)O)C(=O)N[C@@H](Cc1c[nH]c2ccccc12)C(=O)N[C@@H](CC(C)C)C(=O)N[C@@H](CCCN=C(N)N)C(=O)N[C@@H](CCCCN)C(=O)N[C@@H](CCCCN)C(=O)N[C@@H](CC(C)C)C(=O)N[C@@H](CCC(N)=O)C(=O)N[C@@H](CC(=O)O)C(=O)N[C@H](C(=O)N[C@@H](Cc1cnc[nH]1)C(=O)N[C@@H](CC(N)=O)C(=O)N[C@@H](Cc1ccccc1)C(=O)O)C(C)C)C(C)C` is reported as 1.32 ± 0.467 h (human, plasma; sc, 56.5 µg once weekly, day 1, arithmetic mean).
With `des-acyl ghrelin (human)` the brain/serum ratio was 6.67 µL/g (mouse, Ghsr knockout, striatum; intravenous, 10 min).
With `O=C(O)Cc1cc(F)ccc1Nc1c(Cl)cc(F)cc1Cl` the remaining compound was 107 ± 2.2% (human liver microsomes; 30 min, together with: NADPH).
With `Cc1ccnc2c1NC(=O)c1cccnc1N2C1CC1` the AUC(0-8 h) was 769 ± 235 ng·h/mL (olive baboon (Papio anubis), non-pregnant, serum; oral, 5 mg/kg, solution, single dose).
With `CON` the blood concentration was 10.3 ng/mL (human, whole blood on ice; 90 min before centrifugation).
For `CCCC[C@@H]1NC(=O)[C@@H](NC(=O)[C@H](CCC(=O)O)NC(=O)CNC(=O)CN2CCN(CC(=O)O)CCN(CC(=O)O)CCN(CC(=O)O)CC2)CCCCNC(=O)C[C@@H](C(N)=O)NC(=O)[C@H](C(C)C)NC(=O)[C@@H]2CCCN2C(=O)[C@H](CCCNC(=N)N)NC(=O)CNC(=O)[C@H](Cc2c[nH]c3ccccc23)NC(=O)[C@H](CCCNC(=N)N)NC(=O)[C@@H](Cc2ccccc2)NC(=O)[C@H](Cc2c[nH]cn2)NC(=O)[C@H](CCC(=O)O)NC1=O` [indium-111 labelled], the tissue uptake was 0.04 ± 0.03 %ID/g (normal C57 mice, heart; intravenous, 0.037 MBq, 2 h).
`O=C(Nc1ccc(OC(F)(F)F)cc1)N[C@H]1CC[C@H](Oc2ccc(C(=O)O)cc2)CC1` gave a Vss of 0.956 ± 0.096 L/kg (mares, plasma; intravenous, 0.3 mg/kg).
The clearance of `COc1cc2ncnc(Nc3ccc(F)c(Cl)c3)c2cc1OCCCN1CCOCC1` is reported as 38.3 mL/min/kg (ICR mice, male, plasma; intravenous, 5 mg/kg, cassette dosing).
`colistin methanesulfonate` — result for “conversion to colistin”: < 1% (0.9% NaCl; above CMC).
The half-life of `CCCCC1(CCCC)CN(c2ccccc2)c2cc(SC)c(OCC(=O)N[C@@H](C(=O)NCC(=O)O)c3ccccc3)cc2S(=O)(=O)C1` is reported as 2.22 h (LC-MS/MS; human, plasma; oral, 10 mg, single dose, before breakfast).
The microsomal CLint of `Cc1cc(C)c(C#N)c(SCC(=O)c2ccc(Cl)cc2Cl)n1` is reported as 802 µL/min/mg (metabolic stability; human, liver microsomes; 0.5 µM, pH 7.4).

Excerpt of the above:
With `Cc1ccnc2c1NC(=O)c1cccnc1N2C1CC1` the AUC(0-8 h) was 769 ± 235 ng·h/mL (olive baboon (Papio anubis), non-pregnant, serum; oral, 5 mg/kg, solution, single dose).
With `CON` the blood concentration was 10.3 ng/mL (human, whole blood on ice; 90 min before centrifugation).
For `CCCC[C@@H]1NC(=O)[C@@H](NC(=O)[C@H](CCC(=O)O)NC(=O)CNC(=O)CN2CCN(CC(=O)O)CCN(CC(=O)O)CCN(CC(=O)O)CC2)CCCCNC(=O)C[C@@H](C(N)=O)NC(=O)[C@H](C(C)C)NC(=O)[C@@H]2CCCN2C(=O)[C@H](CCCNC(=N)N)NC(=O)CNC(=O)[C@H](Cc2c[nH]c3ccccc23)NC(=O)[C@H](CCCNC(=N)N)NC(=O)[C@@H](Cc2ccccc2)NC(=O)[C@H](Cc2c[nH]cn2)NC(=O)[C@H](CCC(=O)O)NC1=O` [indium-111 labelled], the tissue uptake was 0.04 ± 0.03 %ID/g (normal C57 mice, heart; intravenous, 0.037 MBq, 2 h).
